Assay results pooled from the literature.
Lines come from different studies, so protocols differ. ± marks the error that the study gave.
Chain of UniProt Q12809 (whole entry, looked up): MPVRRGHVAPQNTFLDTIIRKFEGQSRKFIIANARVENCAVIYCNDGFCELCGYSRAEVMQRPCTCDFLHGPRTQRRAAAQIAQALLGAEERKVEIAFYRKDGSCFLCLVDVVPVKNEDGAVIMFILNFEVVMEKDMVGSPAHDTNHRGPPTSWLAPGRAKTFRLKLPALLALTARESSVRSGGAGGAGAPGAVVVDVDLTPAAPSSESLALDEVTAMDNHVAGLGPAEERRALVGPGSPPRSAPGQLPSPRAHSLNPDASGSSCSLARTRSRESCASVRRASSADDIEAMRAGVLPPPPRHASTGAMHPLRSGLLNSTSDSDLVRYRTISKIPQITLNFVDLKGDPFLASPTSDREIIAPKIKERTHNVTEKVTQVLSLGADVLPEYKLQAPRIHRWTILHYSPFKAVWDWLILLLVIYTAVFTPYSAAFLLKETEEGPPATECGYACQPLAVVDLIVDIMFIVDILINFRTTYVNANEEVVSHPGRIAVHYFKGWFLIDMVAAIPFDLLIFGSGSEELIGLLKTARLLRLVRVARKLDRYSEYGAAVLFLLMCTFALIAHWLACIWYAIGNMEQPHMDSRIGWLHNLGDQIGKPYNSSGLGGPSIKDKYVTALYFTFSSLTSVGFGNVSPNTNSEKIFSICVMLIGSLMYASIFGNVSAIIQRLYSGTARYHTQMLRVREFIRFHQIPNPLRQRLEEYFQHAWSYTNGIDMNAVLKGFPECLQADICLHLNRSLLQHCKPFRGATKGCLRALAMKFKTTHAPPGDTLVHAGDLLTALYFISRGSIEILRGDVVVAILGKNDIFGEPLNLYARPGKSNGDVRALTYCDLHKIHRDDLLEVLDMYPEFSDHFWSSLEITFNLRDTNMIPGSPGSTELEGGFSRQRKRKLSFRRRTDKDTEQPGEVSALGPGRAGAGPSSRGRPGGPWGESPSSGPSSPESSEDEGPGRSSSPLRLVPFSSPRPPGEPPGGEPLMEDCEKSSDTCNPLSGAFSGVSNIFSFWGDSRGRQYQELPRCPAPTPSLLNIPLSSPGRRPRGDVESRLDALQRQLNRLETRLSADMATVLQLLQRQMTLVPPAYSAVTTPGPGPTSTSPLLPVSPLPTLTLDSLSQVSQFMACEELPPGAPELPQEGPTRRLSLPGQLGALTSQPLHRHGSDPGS
Chain of UniProt P20813 (whole entry, looked up): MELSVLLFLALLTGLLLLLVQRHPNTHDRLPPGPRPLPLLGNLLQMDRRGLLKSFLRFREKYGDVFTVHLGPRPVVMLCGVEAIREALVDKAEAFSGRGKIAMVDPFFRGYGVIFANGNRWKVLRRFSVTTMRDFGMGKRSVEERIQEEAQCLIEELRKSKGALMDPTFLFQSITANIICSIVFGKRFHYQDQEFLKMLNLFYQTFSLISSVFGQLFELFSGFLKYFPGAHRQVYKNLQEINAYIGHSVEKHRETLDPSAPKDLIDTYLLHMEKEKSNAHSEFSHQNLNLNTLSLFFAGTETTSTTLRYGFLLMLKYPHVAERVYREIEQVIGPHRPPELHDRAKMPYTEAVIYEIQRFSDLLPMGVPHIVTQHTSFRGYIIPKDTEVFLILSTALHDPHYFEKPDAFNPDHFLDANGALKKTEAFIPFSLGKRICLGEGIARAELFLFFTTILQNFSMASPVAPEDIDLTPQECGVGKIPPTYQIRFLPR

COc1cc(C(=O)NCCOCCOCCOCCNC(=O)c2ccc([18F])nc2)ccc1NC(=O)C1NC(CC(C)(C)C)C(C#N)(c2ccc(Cl)cc2F)C1c1cccc(Cl)c1F (stereo not shown)
tracer uptake (HepG2 tumour model; host not given, brain; 30 min, tumour-bearing): 0.84 %ID/g

CC[C@H](C)C(=O)N1CCC(NC(=O)Nc2ccc(OC(F)(F)F)c(F)c2)CC1
subjects with limb injury TEAE (healthy volunteers; oral, 8 mg single dose): 16.7%

CC[N+](C)(CC)Cc1cc(Nc2ccnc3cc(Cl)ccc23)ccc1O
CC50 (BHK-21 DENV2 replicon cells; 24 h): 36 ± 5.04 µM

CCC(=O)N(C)c1ccc(Cl)c(Cl)c1
revertants (Salmonella typhimurium; Ames test; TA1535; 5.00 mg/plate, without S9 activation): 0 revertants/plate

CC1=C[C@H]2c3c(O)cc(CCc4ccccc4)cc3OC(C)(C)[C@@H]2CC1
concentration (male BALB/c mice, brain; intraperitoneal, 40 mg/kg, 1 h): 0.8 nmol/g

O=C(O)CCC(NP(=O)(O)OCCC[C@@H](NC(=O)CCC(NC(=O)c1ccc([18F])cc1)C(=O)O)C(=O)O)C(=O)O (stereo partly shown)
tracer uptake (PC-3 tumour model; host not given, bone; intravenous, 2 h, tumour-bearing): 0.24 %ID/g

CN(C)CC1CCCCC1(O)c1cccc(O)c1 (stereo not shown)
Papp B→A (Caco-2; 100 µM, 3 h, pH 7.4): 13.7 ×10⁻⁶ cm/s

CN[C@](C)(C[18F])C(=O)O
tracer uptake (DU-145 tumour model; host not given, bone; 15 min, tumour-bearing): 2.3 %ID/g

COC(=O)CCCC1C2CCCN3CCCC(CN1S(=O)(=O)c1ccc(Cl)cc1)C23 (stereo not shown)
CC50 (HEK293T): 200 µM

C=CC(=O)Nc1cc(Nc2nccc(-c3cn(C)c4ccccc34)n2)c(OCC(F)(F)F)nc1N(C)CCN(C)C
activity vs control (Cytochrome P450 2B6 (CYP2B6, Homo sapiens, UniProt P20813); enzyme activity, inhibitor; human, liver microsomes; 3.33 µM): 102%

COc1ccc(CNc2nc(N3CCC[C@H]3CO)ncc2C(=O)NNC(=O)c2cnc(N3CCC[C@H]3CO)nc2NCc2ccc(OC)c(Cl)c2)cc1Cl
revertant count (Salmonella typhimurium; TA97a; 62.5 µg/plate, 48 h, added: rat liver S9): 177 ± 9

C[C@@](O)(C(F)F)[C@H](NC(=O)c1ccc(C#CC#CC2CC2)cc1)C(=O)NO
CL/F (dog, plasma; oral, 50 mg/kg): 51 mL/min/kg

O=C(O)CCC(NP(=O)(O)OCCC[C@@H](NC(=O)CCC(NC(=O)CCCCCNC(=O)CCCCCNC(=O)c1ccc([18F])cc1)C(=O)O)C(=O)O)C(=O)O (stereo partly shown)
tracer uptake (PC-3 tumour model; host not given, tumour; intravenous, 2 h, tumour-bearing): 0.27 %ID/g

CC[C@H](C)[C@H](NC(=O)[C@H](CC(=O)O)NC(=O)[C@@H](NC(=O)[C@@H]1CCCN1C(=O)[C@H](CCCNC(=N)N)NC(=O)CCc1cn(CCOCCOCCOCCNC(=O)CCCCC[N+]2=C(/C=C/C=C/C=C3/N(C)c4ccccc4C3(C)C)C(C)(C)c3ccccc32)nn1)[C@@H](C)O)C(=O)N[C@@H](CCCCN)C(=O)N[C@H]1CSSC[C@@H]2NC(=O)[C@H](CCCNC(=N)N)NC(=O)CNC(=O)[C@H](CC(N)=O)NC(=O)[C@H]([C@@H](C)O)NC(=O)[C@H](CCCCN)NC(=O)CNC(=O)[C@H](Cc3ccccc3)NC(=O)[C@H](CCCNC(=N)N)NC(=O)[C@H](CO)NC(=O)[C@H](CCCCN)NC(=O)[C@@H]3CSSC[C@@H](C(=O)N[C@@H](Cc4ccccc4)C(=O)O)NC(=O)[C@H](CC(=O)O)NC(=O)[C@H](CSSC[C@H](NC(=O)[C@H](CCC(N)=O)NC(=O)[C@H](Cc4ccc(O)cc4)NC(=O)[C@H](CO)NC(=O)[C@H](CCC(=O)O)NC(=O)[C@H](CO)NC1=O)C(=O)N[C@@H](Cc1ccccc1)C(=O)N1CCC[C@H]1C(=O)N[C@@H](C(C)C)C(=O)N3)NC(=O)[C@H](Cc1ccccc1)NC(=O)CNC(=O)[C@H](CC(N)=O)NC(=O)[C@H](C(C)C)NC2=O
Hill coefficient (KCNH2 (Homo sapiens, UniProt Q12809); ion current, two-electrode voltage clamp; Xenopus laevis oocytes): 0.8 ± 0.1

COc1ccc(CNc2nc(N3CCC[C@H]3CO)ncc2C(=O)NN)cc1Cl
revertant count (Salmonella typhimurium; TA97a; 250 µg/plate, 48 h, added: rat liver S9): 178 ± 14

O=C(O)CCC(NP(=O)(O)OCCC[C@@H](NC(=O)CCC(NC(=O)CCCCCNC(=O)c1ccc([18F])cc1)C(=O)O)C(=O)O)C(=O)O (stereo partly shown)
tracer uptake (PC-3 tumour model; host not given, lung; intravenous, 2 h, tumour-bearing): 0.27 %ID/g

Repeated from above:
CN(C)CC1CCCCC1(O)c1cccc(O)c1 (stereo not shown)
Papp B→A (Caco-2; 100 µM, 3 h, pH 7.4): 13.7 ×10⁻⁶ cm/s

CN[C@](C)(C[18F])C(=O)O
tracer uptake (DU-145 tumour model; host not given, bone; 15 min, tumour-bearing): 2.3 %ID/g

COC(=O)CCCC1C2CCCN3CCCC(CN1S(=O)(=O)c1ccc(Cl)cc1)C23 (stereo not shown)
CC50 (HEK293T): 200 µM
